Experimental data from different studies.
Numbered parts are unrelated; each lists some results of a single study. “And” joins repeats or separate records; there may be more than shown.
Chain of UniProt Q6P2M8 (whole entry, looked up): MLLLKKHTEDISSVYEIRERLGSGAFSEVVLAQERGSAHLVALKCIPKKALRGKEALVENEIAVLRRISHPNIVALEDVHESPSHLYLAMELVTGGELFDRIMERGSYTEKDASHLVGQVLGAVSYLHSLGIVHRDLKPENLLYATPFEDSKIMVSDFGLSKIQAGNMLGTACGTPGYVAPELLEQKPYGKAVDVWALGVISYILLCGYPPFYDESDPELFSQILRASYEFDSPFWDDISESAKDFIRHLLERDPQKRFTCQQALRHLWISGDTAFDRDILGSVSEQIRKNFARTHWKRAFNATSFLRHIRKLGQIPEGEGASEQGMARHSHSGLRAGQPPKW
Chain of UniProt Q12866 (whole entry, looked up): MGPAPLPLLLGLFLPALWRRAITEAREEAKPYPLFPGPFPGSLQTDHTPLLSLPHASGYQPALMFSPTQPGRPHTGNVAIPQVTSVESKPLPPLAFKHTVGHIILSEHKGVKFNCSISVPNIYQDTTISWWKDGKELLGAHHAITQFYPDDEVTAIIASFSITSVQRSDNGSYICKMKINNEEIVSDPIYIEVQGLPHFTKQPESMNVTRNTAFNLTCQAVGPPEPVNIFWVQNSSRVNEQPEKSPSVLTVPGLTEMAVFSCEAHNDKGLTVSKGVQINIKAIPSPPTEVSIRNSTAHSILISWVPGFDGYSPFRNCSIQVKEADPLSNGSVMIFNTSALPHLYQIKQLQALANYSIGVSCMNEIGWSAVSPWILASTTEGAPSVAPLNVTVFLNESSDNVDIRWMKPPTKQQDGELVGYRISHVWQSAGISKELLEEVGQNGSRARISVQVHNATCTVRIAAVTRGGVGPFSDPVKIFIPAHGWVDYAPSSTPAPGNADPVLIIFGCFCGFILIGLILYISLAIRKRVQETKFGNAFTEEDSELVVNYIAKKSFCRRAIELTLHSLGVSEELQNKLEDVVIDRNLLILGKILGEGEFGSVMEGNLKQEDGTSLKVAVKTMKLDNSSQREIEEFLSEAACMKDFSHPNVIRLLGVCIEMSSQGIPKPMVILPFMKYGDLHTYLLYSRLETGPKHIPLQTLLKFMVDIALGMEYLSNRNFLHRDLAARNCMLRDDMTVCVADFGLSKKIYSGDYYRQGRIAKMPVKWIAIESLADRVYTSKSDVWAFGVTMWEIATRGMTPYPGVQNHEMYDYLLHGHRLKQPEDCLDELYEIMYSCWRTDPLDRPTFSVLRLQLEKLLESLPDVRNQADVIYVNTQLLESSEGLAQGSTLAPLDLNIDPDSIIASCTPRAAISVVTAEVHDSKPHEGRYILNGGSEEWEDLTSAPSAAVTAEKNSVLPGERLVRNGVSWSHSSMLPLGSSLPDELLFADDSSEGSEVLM
Chain of UniProt P42336 (whole entry, unmodified, looked up): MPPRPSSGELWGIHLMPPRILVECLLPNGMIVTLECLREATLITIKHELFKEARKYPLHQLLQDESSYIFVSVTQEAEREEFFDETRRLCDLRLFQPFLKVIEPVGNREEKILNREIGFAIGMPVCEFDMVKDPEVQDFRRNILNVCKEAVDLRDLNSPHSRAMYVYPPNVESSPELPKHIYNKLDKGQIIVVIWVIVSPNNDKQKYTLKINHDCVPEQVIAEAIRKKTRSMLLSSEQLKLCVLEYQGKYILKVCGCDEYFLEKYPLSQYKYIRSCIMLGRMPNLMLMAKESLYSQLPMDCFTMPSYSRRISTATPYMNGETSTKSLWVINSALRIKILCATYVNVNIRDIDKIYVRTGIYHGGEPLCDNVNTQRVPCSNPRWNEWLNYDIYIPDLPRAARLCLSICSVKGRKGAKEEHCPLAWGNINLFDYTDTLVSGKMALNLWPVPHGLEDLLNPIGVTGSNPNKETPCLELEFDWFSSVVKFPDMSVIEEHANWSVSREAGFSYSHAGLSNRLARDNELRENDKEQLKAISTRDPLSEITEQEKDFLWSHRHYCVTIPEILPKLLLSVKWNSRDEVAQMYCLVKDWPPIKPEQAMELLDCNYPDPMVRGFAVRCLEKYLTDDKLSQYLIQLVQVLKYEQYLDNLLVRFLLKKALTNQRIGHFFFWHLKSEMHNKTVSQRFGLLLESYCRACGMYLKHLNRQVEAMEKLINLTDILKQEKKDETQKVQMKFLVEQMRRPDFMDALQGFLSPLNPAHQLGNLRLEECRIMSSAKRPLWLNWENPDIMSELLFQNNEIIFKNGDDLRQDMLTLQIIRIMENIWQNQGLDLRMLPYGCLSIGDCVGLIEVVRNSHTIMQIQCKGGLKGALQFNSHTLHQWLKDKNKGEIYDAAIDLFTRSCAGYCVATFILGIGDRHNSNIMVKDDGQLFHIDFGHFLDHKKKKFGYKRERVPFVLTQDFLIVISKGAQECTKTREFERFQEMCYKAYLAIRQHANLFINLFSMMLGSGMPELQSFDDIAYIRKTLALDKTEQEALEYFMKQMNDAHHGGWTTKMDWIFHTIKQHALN
Chain of UniProt O95835 (whole entry, looked up): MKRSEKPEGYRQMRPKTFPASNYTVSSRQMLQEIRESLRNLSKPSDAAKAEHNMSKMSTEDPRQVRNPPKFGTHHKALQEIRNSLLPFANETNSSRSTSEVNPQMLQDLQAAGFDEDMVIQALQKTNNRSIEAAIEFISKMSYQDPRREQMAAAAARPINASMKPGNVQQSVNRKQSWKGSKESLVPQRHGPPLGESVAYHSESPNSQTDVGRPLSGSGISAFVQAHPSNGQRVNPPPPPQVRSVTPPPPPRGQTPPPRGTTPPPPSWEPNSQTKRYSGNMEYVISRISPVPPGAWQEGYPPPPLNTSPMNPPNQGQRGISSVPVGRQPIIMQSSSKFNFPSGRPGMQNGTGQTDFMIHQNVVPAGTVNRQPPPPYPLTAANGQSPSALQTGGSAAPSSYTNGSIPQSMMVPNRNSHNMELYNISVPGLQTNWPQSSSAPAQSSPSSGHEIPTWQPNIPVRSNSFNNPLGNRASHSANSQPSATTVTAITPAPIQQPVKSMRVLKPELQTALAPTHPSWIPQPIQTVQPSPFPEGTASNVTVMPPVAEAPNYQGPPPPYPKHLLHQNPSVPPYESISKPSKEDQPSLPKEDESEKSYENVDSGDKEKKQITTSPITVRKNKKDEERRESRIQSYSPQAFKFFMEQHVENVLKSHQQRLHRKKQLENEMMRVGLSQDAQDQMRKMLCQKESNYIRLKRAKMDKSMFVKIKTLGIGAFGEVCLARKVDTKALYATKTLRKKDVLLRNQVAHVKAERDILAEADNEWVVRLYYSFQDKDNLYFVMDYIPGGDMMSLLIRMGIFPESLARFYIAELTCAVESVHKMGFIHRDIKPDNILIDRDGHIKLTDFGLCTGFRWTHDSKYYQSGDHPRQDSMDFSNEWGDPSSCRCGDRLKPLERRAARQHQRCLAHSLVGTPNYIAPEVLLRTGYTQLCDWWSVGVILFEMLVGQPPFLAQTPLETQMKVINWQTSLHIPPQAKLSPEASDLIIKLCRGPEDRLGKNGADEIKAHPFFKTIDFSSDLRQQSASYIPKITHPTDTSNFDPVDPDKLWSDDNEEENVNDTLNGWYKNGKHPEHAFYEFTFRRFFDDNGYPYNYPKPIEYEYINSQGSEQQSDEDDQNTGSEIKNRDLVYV
Chain of UniProt P62344 (whole entry, looked up): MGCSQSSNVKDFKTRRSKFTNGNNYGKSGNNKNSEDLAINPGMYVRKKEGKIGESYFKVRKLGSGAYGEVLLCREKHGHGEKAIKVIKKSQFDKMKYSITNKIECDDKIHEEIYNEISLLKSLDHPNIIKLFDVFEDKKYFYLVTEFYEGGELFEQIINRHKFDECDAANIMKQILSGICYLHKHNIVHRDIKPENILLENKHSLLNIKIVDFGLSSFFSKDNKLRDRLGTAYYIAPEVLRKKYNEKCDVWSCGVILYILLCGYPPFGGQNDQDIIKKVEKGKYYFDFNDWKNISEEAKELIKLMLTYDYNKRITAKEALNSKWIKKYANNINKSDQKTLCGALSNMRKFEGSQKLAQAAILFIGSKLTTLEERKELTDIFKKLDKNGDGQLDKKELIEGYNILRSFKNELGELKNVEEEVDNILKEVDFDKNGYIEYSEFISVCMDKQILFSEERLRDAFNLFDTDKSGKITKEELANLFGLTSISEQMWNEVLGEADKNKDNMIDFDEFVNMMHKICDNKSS

Block 1
Cell line: mouse MPNST tumor cells
Technique: high-content immunofluorescence imaging
Item: nuclear SOX9
Concentration: 10 µM
Time: 12 h
Setting: mean of 2 replicates
Baseline: DMSO control
Direction: higher = more nuclear SOX9
Compound | nuclear SOX9 intensity
O=C(NCC1(N2CCN(c3ccccc3)CC2)CCOCC1)c1cccnc1Sc1ccccc1 | 101 % of DMSO
CC(=O)OCC(=O)NCCCOc1cccc(CN2CCCCC2)c1 | 94.2 % of DMSO
N=C(N)c1ccc(OCCCCCOc2ccc(C(=N)N)cc2)cc1 | 77.4 % of DMSO and 74.1 % of DMSO
COc1cc2c(cc1OC)CN(C(=O)C=Cc1c(-c3ccccc3)n(C)c3ncccc13)CC2 | 182 % of DMSO
CS(=O)(=O)c1ccc([C@@H](O)[C@@H](CO)NC(=O)C(Cl)Cl)cc1 | 106 % of DMSO

Block 2
Target: Protein-tyrosine kinase 6 (PTK6, Homo sapiens, UniProt Q13882)
Chain of UniProt Q13882 (whole entry, looked up): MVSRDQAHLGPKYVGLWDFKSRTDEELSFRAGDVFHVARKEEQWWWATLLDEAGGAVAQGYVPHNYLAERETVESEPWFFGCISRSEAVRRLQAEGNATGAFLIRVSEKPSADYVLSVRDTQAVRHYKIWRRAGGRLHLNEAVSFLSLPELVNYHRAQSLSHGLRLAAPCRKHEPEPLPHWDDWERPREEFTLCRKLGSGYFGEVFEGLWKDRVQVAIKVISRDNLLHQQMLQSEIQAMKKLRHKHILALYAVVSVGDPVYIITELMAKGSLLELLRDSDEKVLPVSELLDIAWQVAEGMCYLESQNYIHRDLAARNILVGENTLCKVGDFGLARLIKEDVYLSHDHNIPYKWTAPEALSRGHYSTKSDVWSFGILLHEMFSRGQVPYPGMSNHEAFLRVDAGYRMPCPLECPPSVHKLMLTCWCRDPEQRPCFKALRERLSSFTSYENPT
Observed: enzyme activity
Action: inhibitor
Concentration: 0.5 µM
Baseline: control
SMILES | remaining activity [%]
N#CC(C#N)=C(N)/C(C#N)=C/c1ccc(O)cc1 | 84.9
O=c1c2ccccc2[nH]c(=S)n1CCN1CCC(=C(c2ccc(F)cc2)c2ccc(F)cc2)CC1 | 100
Oc1ccc(-c2nc(-c3ccncc3)c(-c3ccc(F)cc3)[nH]2)cc1 | 50.3
O=C1NC(=O)C(c2cn(CCCO)c3ncccc23)=C1c1cnccn1 | 101
O=C(Nc1cccc(Nc2cc(Nc3cccc(C(F)(F)F)c3)ncn2)c1)C1CC1 | 98.4
COc1ccc(CNC(=O)Nc2ncc([N+](=O)[O-])s2)cc1 | 99.6
Cn1c2ccccc2c2c3c(c4c5ccccc5n(CCC#N)c4c21)CNC3=O | 38.7
CN(C)c1ccc(C=C2C(=O)Nc3ccccc32)cc1 | 98.8
O=C(O)c1ccc2c3c1cccc3c(=O)n1c3ccccc3nc21 | 91.1
CO[C@H]1C[C@@H]2CC[C@@H](C)[C@@](O)(O2)C(=O)C(=O)N2CCCC[C@H]2C(=O)O[C@H]([C@H](C)C[C@@H]2CC[C@@H](O)[C@H](OC)C2)CC(=O)[C@H](C)/C=C(\C)[C@@H](O)[C@@H](OC)C(=O)[C@H](C)C[C@H](C)/C=C/C=C/C=C/1C | 88
Nc1ncnc2n[nH]c(Nc3ccc(F)cc3)c12 | 68.3
C#Cc1cccc(Nc2ncnc3cc(OCCOC)c(OCCOC)cc23)c1 | 85.9
Cc1ccc(Nc2nccc(N(C)c3ccc4c(C)n(C)nc4c3)n2)cc1S(N)(=O)=O | 66.2
CC(C)[C@H](CO)Nc1nc(Nc2cc(N)cc(Cl)c2)c2ncn(C(C)C)c2n1 | 85.6
OCC(O)CCON=C1C(c2c(O)[nH]c3ccccc23)=Nc2ccccc21 (centres unmarked) | 73.3
O=S(=O)(c1cccc2cnccc12)N1CCCNCC1 | 96.1

Block 3
Target: Calcium/calmodulin-dependent protein kinase type II subunit alpha (CAMK2A, Homo sapiens, UniProt Q9UQM7)
Chain of UniProt Q9UQM7 (whole entry, looked up): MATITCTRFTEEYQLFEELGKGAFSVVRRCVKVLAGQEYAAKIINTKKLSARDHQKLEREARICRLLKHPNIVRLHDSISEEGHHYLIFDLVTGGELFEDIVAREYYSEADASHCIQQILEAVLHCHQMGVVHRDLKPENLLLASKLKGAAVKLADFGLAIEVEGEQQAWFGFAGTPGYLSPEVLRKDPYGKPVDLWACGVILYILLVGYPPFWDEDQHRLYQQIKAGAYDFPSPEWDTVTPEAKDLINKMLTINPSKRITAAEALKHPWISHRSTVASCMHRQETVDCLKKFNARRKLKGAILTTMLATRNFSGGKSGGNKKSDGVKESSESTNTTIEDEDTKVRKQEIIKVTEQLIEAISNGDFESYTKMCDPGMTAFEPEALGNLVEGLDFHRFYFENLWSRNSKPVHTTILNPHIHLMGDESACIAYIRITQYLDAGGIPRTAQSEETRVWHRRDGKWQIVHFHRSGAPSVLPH
Observed: enzyme activity
Action: inhibitor
Concentration: 10 µM
Structure (SMILES) | inhibition
COc1cc2ccc(=O)oc2c(OC)c1OC | 8%
NCCS(=O)O | 21%
O=C(O)C(O)Cc1ccc(O)cc1 (centres unmarked) | 44%
Cc1c(-c2ccccc2)oc2c(C(=O)OCCN3CCCCC3)cccc2c1=O | -3%

Block 4
SMILES: COc1cccc(CNC(=O)c2nc3scc(COCc4ccc(C(=O)O)cc4)c3c(=O)[nH]2)c1
Observed: cell-free assay
Technique: competition with immobilised ligand
Concentration: 1 µM
target | remaining binding [%]
LATS1 (Homo sapiens, UniProt O95835) | 100
MERTK (Homo sapiens, UniProt Q12866) | 88.3
STK17B (Homo sapiens, UniProt O94768) | 94.4
PNCK (Homo sapiens, UniProt Q6P2M8) | 70.7
ALK (Homo sapiens, UniProt Q9UM73) | 92
BRAF (Homo sapiens, UniProt P15056, V600E) | 79.8

Block 5
Compound: C[C@H]1CC[C@H](n2c3cnccc3c3cnc(Nc4ccc5c(n4)CCN(C(=O)CO)C5)nc32)CC1
Observed: cell-free assay
Concentration: 1 µM
target | remaining signal [%]
PIK3CA (Homo sapiens, UniProt P42336, M1043I) | 100
EIF2AK1 (Homo sapiens, UniProt Q9BQI3) | 100
CDPK1 (Plasmodium falciparum, UniProt P62344) | 53
MAPKAPK5 (Homo sapiens, UniProt Q8IW41) | 100
